Published values pooled from the literature.
Every numbered part comes from another study and shows a few of its results, in no order. Changes are numbered by the printed parent chain.

Set 1
Target: CRIPT, C-terminal peptide
Method: DHFR complementation, deep sequencing
Matrix: yeast
Notes: single substitutions, model-inferred values
Relative to: wild type
Direction: higher = weaker binding
Starting sequence: ERBIN, PDZ domain 1 (human); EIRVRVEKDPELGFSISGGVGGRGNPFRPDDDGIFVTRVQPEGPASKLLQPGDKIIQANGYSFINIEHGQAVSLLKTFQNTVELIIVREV; partner TKNYKQTSV
| Substitution | binding free energy change |
| --- | --- |
| L49C | -0.295 kcal/mol |
| I56F | 0.136 kcal/mol |
| S15I | 0.678 kcal/mol |
| N80S | 0.0432 kcal/mol |
| E11W | -0.565 kcal/mol |
| R23V | -0.0184 kcal/mol |
| P51H | 0.383 kcal/mol |
| P10E | -0.519 kcal/mol |
| K76Y | 0.946 kcal/mol |
| R88W | 0.87 kcal/mol |
| V6A | 0.488 kcal/mol |
| F63N | 1.15 kcal/mol |
| G24M | 1.45 kcal/mol |
| V87I | -0.0167 kcal/mol |

Set 2
Target: ABI1, truncated, D143A, DHFR fusion (Arabidopsis thaliana)
Method: DHFR PCA, deep sequencing
Matrix: yeast
Notes: methotrexate growth selection, single substitutions
With: (+)-ABA 710 µM
Relative to: wild-type fitted maximum
Direction: higher = stronger binding
Starting sequence: PYL1, truncated, DHFR fusion (Arabidopsis thaliana); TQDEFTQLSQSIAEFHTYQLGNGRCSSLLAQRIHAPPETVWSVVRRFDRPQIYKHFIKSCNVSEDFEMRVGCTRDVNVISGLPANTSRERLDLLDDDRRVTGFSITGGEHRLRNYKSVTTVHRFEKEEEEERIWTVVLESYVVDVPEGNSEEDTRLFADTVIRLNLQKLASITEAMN; partner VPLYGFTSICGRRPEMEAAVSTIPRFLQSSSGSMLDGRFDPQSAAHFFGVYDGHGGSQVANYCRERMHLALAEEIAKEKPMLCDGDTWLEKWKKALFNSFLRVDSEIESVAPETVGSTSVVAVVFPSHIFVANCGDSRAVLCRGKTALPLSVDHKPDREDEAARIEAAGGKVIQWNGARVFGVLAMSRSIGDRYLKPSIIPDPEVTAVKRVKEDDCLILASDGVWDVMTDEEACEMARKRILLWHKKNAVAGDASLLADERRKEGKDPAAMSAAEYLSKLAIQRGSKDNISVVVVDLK
| Substitution | relative binding score [%] |
| --- | --- |
| W134I | 112 |
| V78D | 1.26 |
| R99E | 67.6 |
| T86Y | 98.4 |
| T106W | 97.3 |
| V62P | 92.6 |
| V40N | -45.7 |
| I52A | 108 |
| H16G | 23.3 |
| N85H | 101 |
| R69P | 63.3 |
| S87W | 19.5 |
| V136M | 103 |
| D153Q | 86.7 |
| H110Y | 14.5 |
| A30H | 105 |
| E147F | 95.5 |
| Q7R | 108 |
| N61M | 101 |
| V100S | 89 |
| T39N | 90.5 |
| R155L | 95.4 |
| F47T | 6.8 |
| S26T | 102 |
| Y18C | 91.4 |

Set 3
Target: FOS, bZIP domain (human)
Method: DHFR protein complementation
Matrix: yeast
Notes: single substitutions, most at no-binding floor
Relative to: wild-type JUN-FOS pair
Direction: higher = stronger binding
Starting sequence: JUN, bZIP domain (human); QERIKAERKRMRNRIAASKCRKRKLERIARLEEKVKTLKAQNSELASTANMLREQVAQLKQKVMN; partner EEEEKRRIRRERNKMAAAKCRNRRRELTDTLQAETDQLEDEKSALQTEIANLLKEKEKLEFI
| Substitution | binding fitness [natural log] |
| --- | --- |
| K39R | 0.0798 |
| K36A | 0.0792 |
| Q58R | -0.131 |
| E32L | -0.0205 |
| E44T | -0.224 |
| K36G | -0.228 |
| V35L | -0.169 |
| V56K | -1.34 |
| L31R | -0.723 |
| E44L | -0.163 |
| A49V | -0.0951 |
| I28E | -0.0512 |
| T37Q | 0.131 |
| R30I | 0.0513 |
| S47H | -0.0134 |
| A29E | -0.122 |
| K34D | -0.405 |
| A40L | -0.0856 |

Set 4
Organism: Saccharomyces cerevisiae
Read-out: binding
Method: competitive growth deep sequencing
Form: peptide
Strain: cyclin D3-Cln2 fusion strain
Concentration: concentration not given
Notes: peptide tiling library
Direction: direction not given
| Molecule | growth enrichment score |
| --- | --- |
| RDLFDCDFGDLTPLDF | 0.493 |
| IQKKLRFEDTLEFVGF | -0.349 |
| ALLRRLQDVANDRGSH | 4 |
| EAAPPTQEAQGETEPT | 0.812 |
| LRRKLFLDGNGSIS | 0.148 |
| RSLKLDGLLEEN | -0.0417 |
| DVSERGYVILPNDYFE | 0.52 |
| CFRCLLFSFSGRSGVE | -1.23 |
| VEEEFFALRKRTPSAG | 0.103 |
| AKRSLGFLPQPVPL | -0.456 |
| KPKPVKPVTFSTGIKM | -0.379 |
| ARKRLELGNLGNPQ | -1.13 |
| QYQVVDDIVSKLVFDF | -0.392 |
| GLPDFVFQQQPVESEA | -0.992 |
| ESSTVSEEDYFSSHRD | 0.538 |
| EPKTLFLGAGDFQF | 0.793 |

Set 5
Target: RNA binding protein fox-1 homolog 2, RRM domain, GST-SBP tag (RBFOX2, Homo sapiens, UniProt O43251-10, residues 100-194)
Method: RNA Bind-n-Seq
Form: RNA
Matrix: in vitro
Concentration: 365 nM
Notes: natural RNA segment, single round, ends assumed
Relative to: no-protein control
Direction: higher = stronger binding
Target sequence (chain): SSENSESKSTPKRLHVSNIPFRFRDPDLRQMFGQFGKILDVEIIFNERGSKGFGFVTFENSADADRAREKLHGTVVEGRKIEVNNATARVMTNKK
| Sequence | RBNS enrichment (R) |
| --- | --- |
| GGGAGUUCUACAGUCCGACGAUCAGCCUUACCUUUGAUGUCUGAAAUGAAACCCCCUUCUCCAAAGGCAAAAUUCGGAGACUUUGAUCUUUGCUACUGGAGUCCUUUAACAACAUCUAUAACGAUAAAAAAUUUGGAAUUCUCGGGUGCCAA | 0.382 |
| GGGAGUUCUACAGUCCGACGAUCUGUCUGUGGGUUCGUCUGCCCAGGGCCUGGAGCCCAAGCCCUGUGUUCCUGGGGAAGCUGGGGACUUGGGAAGUGAUGGGUGUGUCAUGUUGCGUGUGUCUGUCUGUGAGUGGAAUUCUCGGGUGCCAA | 4.37 |
| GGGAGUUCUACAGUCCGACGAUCAACUGAAACCACUUAGAAGAAAAGAAGAAACCUAAAUGUCUGUGGAAGUGAUCAGUAUUAAGUGGGUGAUGGCUCUUUCAUCUUCCUUAUCCCUAAAGAUACUUCCAACAUGGAAUUCUCGGGUGCCAA | 0.441 |
| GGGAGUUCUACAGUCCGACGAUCAAAUGACAAACCCAGCCCUUCCCAGUAUACUUGAAAAGCUUUCUUGUUAAAAUAAAAGGUGUCACUGUGGUAGGCAUUUGGCAUAUUUUGUGGACUCAGUCAAGCAACCAUGGAAUUCUCGGGUGCCAA | 0.326 |
| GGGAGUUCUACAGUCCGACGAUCAUCAGGUUAUUUCCUAAUGUAAGAAUAGCUAAAAUGUUGCAGAGAAAUAAGUGACCCAACAAAAUUUAUUCAUCUGUUAUGGGUAAGAUCUGCCAUAAAUUCUUCCUAAAUGGAAUUCUCGGGUGCCAA | 0.535 |
| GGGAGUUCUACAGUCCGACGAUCCAGUCAUUUUUAAAGAAAUUCUAUACUUCAUAUACUGUAUAAUGAUUAAAAUAAUAAACCAUUUCAGAAAUAACAGCUUAUUCUUGUUUGAAAAAUGAAAACAUACAUUGUGGAAUUCUCGGGUGCCAA | 0.484 |
| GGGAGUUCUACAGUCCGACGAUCUAGCCCAAUGAAGGUGAUGAAGCUUUUGGAUUUGGAGGGUAAAAGCUCCUUCACACCCCUUCCAAAAGUCAGUCACAGACCACUGCAACAUGCCUUCCCUGCUGGAUCAUUGGAAUUCUCGGGUGCCAA | 0.828 |
| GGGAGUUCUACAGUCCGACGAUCUAUGCCACCUGUGUGUCAGGAUGCACCUGAAAGCCCUCGGCUCGGUCCUUAGACCAUCUUCCUACAUUACCUGGAAGGGAGCUGCCAUCUGUCCCUCUGCAGAGGGAUACUGGAAUUCUCGGGUGCCAA | 0.24 |
| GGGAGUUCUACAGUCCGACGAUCCACGACUUCCACCGUGUGUACAUCAGUGAACCUGAAACUCAGGGGACUUUGAACACCCGAGGGGCUGUGCCCCAGCUCCCCACUCCCCCAGGGGCAAUGGCCCCAACCUCUGGAAUUCUCGGGUGCCAA | 0.398 |
| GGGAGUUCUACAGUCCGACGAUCCAAUAGCACAGAACGUCUUAAUGCCAGAGGUCACUUCAGCAUCUUCCUGCUUUGAAAACUCACGCUGGCUGCUUCACUGCCCUGAGAUUCAGUGAGACACGCAGUUUGUGUGGAAUUCUCGGGUGCCAA | 0.478 |
| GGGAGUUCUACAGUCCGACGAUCCGCCAGCCCUUUGCACAGGCAGCUGGGAAUUCCACCUGAAACAGCUGGUCCCUAGGUUAGCGGGUUCCCAGCCCCCCUAAUCAGAGACUGAAGGACAAUUGACUUUUAUUUGGAAUUCUCGGGUGCCAA | 1.43 |
| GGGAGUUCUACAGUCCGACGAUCUCUCGAUUUUGUUCUGAGGGUUUAUGAACUCAUUGAGAACCAGGAUUCCUUGAGACUCUUUAGCAUUAGUGCUCUGAGGUUAAAAGCAGUUCGGAAGACUCAUCUAGCCCUGGAAUUCUCGGGUGCCAA | 0.31 |

Set 6
Target: Interferon regulatory factor 5, full length, phosphomimetic (IRF5, Homo sapiens, UniProt Q13568-2, residues 1-514, S451D/S453D/S456D/S462D)
Method: protein-binding microarray
Form: double-stranded DNA, one strand shown
Matrix: in vitro
Concentration: 940 nM top
Notes: 60-bp whole probe
With: salmon DNA 0.4 mg/ml
Relative to: random background probes
Direction: higher = stronger binding
Shared flanks, not repeated: GCCTAGCAC … GTCTTGATTCGCTTGACGCTGCTG
| Sequence | fitted relative affinity |
| --- | --- |
| GACGGACTTGGGACTGGGGACGTGCTA | -0.256 z-score |
| GCTCTCTTCTGCTTCCTCAGGTGCTAG | 1.36 z-score |
| GACGGTTTCGGTCTCGAGACGTGCTAG | 12.8 z-score |
| TTAGATCTCAGTCTCGATTGGTGCTAG | 3 z-score |
| GACGGTTTCGACACTCGGGACGTGCTA | 6.93 z-score |
| GACGGTTTCGGACTCGGGACGTGCTAG | 6.15 z-score |
| GACGAACTGGGAACTGGAGACGTGCTA | -0.196 z-score |
| CTTCATGTTGCTCTCCGGGGGTGCTAG | 1.04 z-score |
| GACGGACTGGGCTATCGGGACGTGCTA | -0.765 z-score |
| GACGAACTGAGTCTTGAGACGTGCTAG | -0.438 z-score |
| GTAGATTTCAGTATCGATTAGTGCTAG | 5.52 z-score |
| AACCATTTTGGTTTTCTCTAGTGCTAG | 0.345 z-score |
| TTAGGTATCGAAACTGGGTTAGTGCTA | 6.54 z-score |
| GACGGGATCGACTTTCGGGACGTGCTA | 0.737 z-score |
| GACGATCTCAGACCGGAGACGTGCTAG | -0.361 z-score |
| TTAGATATCAGTATCAATTAGTGCTAG | 1.33 z-score |
| TCATTTTTAGATTTTTTACTGTGCTAG | 0.643 z-score |
| TGAAAACTAAGTTTATTAGAGTGCTAG | -0.335 z-score |
| GTCTGTTTCCTCTTTCTTTGGTGCTAG | 1.98 z-score |
| TTAGATATCAGTTTTGATTAGTGCTAG | 0.542 z-score |
| CACGGACTGCTTATCCTGACGTGCTAG | -0.5 z-score |
| TCAGTCATCTATAATGGAACTGTGCTA | 0.0936 z-score |
| GACGATCTCAGTATCGAGACGTGCTAG | 2.37 z-score |
| AACGGTCTCGGTTTCGGGACGTGCTAG | 5.86 z-score |
| TTTGGTTTCTGGTTTATTGAGTGCTAG | 6.09 z-score |

A few entries again (set 4):
| Molecule | growth enrichment score |
| --- | --- |
| RSLKLDGLLEEN | -0.0417 |
| ALLRRLQDVANDRGSH | 4 |
| EAAPPTQEAQGETEPT | 0.812 |
| IQKKLRFEDTLEFVGF | -0.349 |
| RDLFDCDFGDLTPLDF | 0.493 |
| GLPDFVFQQQPVESEA | -0.992 |
| ARKRLELGNLGNPQ | -1.13 |
| LRRKLFLDGNGSIS | 0.148 |
